# Assay results from different studies.
# Numbered parts are unrelated; each lists some results of a single study.

# Study 1
# Target: Histone acetyltransferase KAT6A, both winged helices, GST fusion (KAT6A, Homo sapiens, UniProt Q92794, residues 1-181)
# Technique: protein binding microarray
# Form: double-stranded DNA, one strand shown
# Matrix: in vitro
# Tested at: not given
# Notes: 8-mer, flanks averaged, mean of 2 arrays, mostly near background
# Baseline: not given
# Reading: higher = stronger binding
# Residues (chain): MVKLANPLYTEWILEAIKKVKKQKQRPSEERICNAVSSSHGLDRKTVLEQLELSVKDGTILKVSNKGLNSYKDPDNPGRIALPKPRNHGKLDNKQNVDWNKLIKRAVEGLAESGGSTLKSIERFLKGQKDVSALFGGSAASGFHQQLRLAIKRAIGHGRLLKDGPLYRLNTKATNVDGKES
Oligonucleotide,E-score
ATAACAGA,-0.0663
ACGTAATG,-0.145
AGTGGTCA,-0.067
TAGGATAA,-0.0738
ATGATCGC,0.223
CAAATCGC,0.0027
GTGATTTA,-0.0191
ACGTTATC,-0.159
AGTGCTTC,-0.192
TAGAGGAA,-0.138
CCAAAATC,-0.0991
GCTTTATA,0.0608
AGATGGCC,-0.0201
GTCAGACA,0.0772
TCGGCGCA,0.232
GAGGACAC,-0.0183
CTCGCCTA,-0.045

# Study 2
# Target: PABPC1L2, full length, GST fusion (mouse, UniProt A0ABA7IW68)
# Technique: RNAcompete
# Form: RNA
# Matrix: in vitro
# Tested at: 20 nM
# Notes: 7-mer, probes averaged, single round
# Baseline: mean of 7-mers
# Reading: higher = stronger binding
# Residues (chain): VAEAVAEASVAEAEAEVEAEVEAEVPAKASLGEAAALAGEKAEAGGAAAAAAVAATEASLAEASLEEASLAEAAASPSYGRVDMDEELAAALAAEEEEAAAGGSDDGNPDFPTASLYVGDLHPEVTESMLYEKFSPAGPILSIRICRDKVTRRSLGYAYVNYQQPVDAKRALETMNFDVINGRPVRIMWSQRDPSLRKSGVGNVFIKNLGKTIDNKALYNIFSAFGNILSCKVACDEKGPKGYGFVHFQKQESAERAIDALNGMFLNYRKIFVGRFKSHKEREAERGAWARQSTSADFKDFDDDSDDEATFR
Oligonucleotide,7-mer Z-score
GUAUCGG,-0.0246
UCAACAC,-0.108
GAACUAA,0.244
CGAACAA,0.582
GUCUUCU,-0.463
GGCGAGC,0.258
GUCAGCA,-0.157
GCGGACG,0.0587
GUGUGGU,-0.079
UGUAUCC,-0.329
CGGACCG,-0.202
GAGCAAG,-0.0138
CCGGUAC,-0.248
CGAUCGG,-0.11
AGCGUUG,-0.101
GAAAAGA,3.93
AAGCUAU,-0.0573
AGACCAG,-0.188
GGUACCA,0.0134
UCUAUUC,-0.421
AGGAAAU,0.274
ACGGGCU,0.332
AUGCCCG,-0.347
ACUACGC,-0.208
CGAAACU,-0.142

# Study 3
# Target: RING finger protein unkempt homolog, zinc fingers 1-6, GST-SBP tag (UNK, Homo sapiens, UniProt Q9C0B0, residues 30-357)
# Technique: RNA Bind-n-Seq
# Form: RNA
# Matrix: in vitro
# Tested at: not given
# Notes: RNA with constant flanks, human-mouse chimeric sites, ends assumed
# Baseline: input RNA pool
# Reading: higher = stronger binding
# Construct (chain): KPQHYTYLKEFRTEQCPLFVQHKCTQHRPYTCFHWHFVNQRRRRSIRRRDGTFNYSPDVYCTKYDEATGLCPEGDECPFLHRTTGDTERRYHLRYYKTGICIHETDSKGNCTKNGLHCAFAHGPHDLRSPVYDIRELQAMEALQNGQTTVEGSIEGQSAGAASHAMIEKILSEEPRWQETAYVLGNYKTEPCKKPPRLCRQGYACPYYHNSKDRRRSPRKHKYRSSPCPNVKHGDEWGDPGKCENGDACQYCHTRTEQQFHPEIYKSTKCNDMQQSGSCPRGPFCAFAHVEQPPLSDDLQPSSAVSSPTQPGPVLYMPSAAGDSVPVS
Oligonucleotide,bound/input enrichment [ratio]
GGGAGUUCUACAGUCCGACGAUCAUGGAGAAGGAUUCUCUGCCCCGCUUUGUGCGCUCUGAGUUUUAUCAGGAGCUAAUCAAGUAGUAAUCUGGUCAGGCUUCCAAAAGUUGCCCUGUGAGUUGAGUUACAUCCUUUGUAGCACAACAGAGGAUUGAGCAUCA,0.263
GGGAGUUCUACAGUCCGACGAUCGUAUACGGUUAUCGAGGAAAGGACUGUAGAGCGAAUGUAUACCUGCUUCCCACAGGGAAAAUAGUUUAUUUUAUCGCCUCAGUGGUAGUCCUGUUUAAUUAUGAGGAGAGAACUCAGCGACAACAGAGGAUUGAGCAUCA,33.2
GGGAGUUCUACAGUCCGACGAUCCUCAGAGAUGUGGCAUAUCAGUAUGUGAAAAAGGGGGCUCGUAUAUUUGUGGAAGGGAAAGUGGACUAUGGUGAAUACAUGGAUAAAAACAAUGUGAGGCGACAAGCAACAACAAUCAUACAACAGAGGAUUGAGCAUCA,0.322
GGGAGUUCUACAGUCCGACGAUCCACACACUCUUCUGCGGCACCCUCAUUCUGCAGGCCCGGGCCUAUGUGGGACCGCACGUCCUGGCAGUGGUGACCCGCACAGGGUUCUGCACGGCAAAAGGGGGCCUGGUGAGCUCCAUCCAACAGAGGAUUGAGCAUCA,0.129
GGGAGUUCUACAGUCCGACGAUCUUACUUUUGACUCCCUGGGUCAAGUUCCUGUGGGAAUCUUACAGGCAGUGUUUGGACCUUCUUCGAAACAAUUCUAGAGUAGAGCGCCUUUACCAUGAUAUCGCCCAACAAGCUUUCAAACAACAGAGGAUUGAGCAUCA,0.19
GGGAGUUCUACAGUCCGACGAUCUAAGUUAUUUUGUACAGUAAGUUAUUUUCUUAACAUUUUUAUAUUGCCAUGUUUAUUUUGUUUGGGUAAUUUGGUUCAUUAAGUACAUAGCUAAGGUACAUCUUUCAUUUUUCAGUAAUUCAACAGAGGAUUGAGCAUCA,1.66
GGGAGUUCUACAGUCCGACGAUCGCUCCUCCCCGCUCUGCAGCCUGGGGACUUUUGGCAAGGACCAGAAUCCAGCUUUCUUUUAAAACUCUCAGUGUAACUGUAUCCCGUGACAUUUCAUUUUUUUUUUAUAGUGUAUUUUUUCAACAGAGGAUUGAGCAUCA,15.4
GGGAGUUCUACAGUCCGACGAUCUAAGUUAAGCUUUUAAUCUUUGUAAAUUCUUAACAUUAAUUUGUAAACAUGUUUAUUUUGUUUGGGUAAUUUGGUUCAUUAAGUACAUAGCUAAGGUAAUGAACAUCUUUUUCAGUAAUUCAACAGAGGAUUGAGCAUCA,0.393
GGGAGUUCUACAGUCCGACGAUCCACACCCUCUUCUGCGGGACCCUCAUCUUGCAGGCCCGGGCCUAUGUGGGACCCCGUGUCCUGGCAGUGGUGACCCGCACAGGGUUCUGCACGGCAAAAGGGGGCCUGGUGAGCUCCAUCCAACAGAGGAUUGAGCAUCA,0.0888
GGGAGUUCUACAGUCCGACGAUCGGAAGUACAAUGAUGGAAAUAGAUGGCGACAAAGGCAAGCAGGGCGGGCCCACCUACUACAUAGAUACCAAUGCCCUCCGCGUGCCCAGGGAGAACAUGGAGGCCAUCUCACCACUCAAGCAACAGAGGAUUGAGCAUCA,0.283
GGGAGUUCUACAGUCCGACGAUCUUGCCUGAGAACGAGGAUGAGCUGGAGAGCACCAACAGGCGCUACACCAAGAGAGACUGCAGCACUUUCCUCAGAACUAGUGAGACGGGCAUCGUGGACCAGGUCAUGGUCACUCUCAACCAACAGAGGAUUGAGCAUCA,0.151

# Study 4
# Target: RNA binding protein fox-1 homolog 2, RRM domain, GST-SBP tag (RBFOX2, Homo sapiens, UniProt O43251-10, residues 100-194)
# Technique: RNA Bind-n-Seq
# Form: RNA
# Matrix: in vitro
# Tested at: 365 nM
# Notes: natural RNA segment, single round, ends assumed
# Baseline: no-protein control
# Reading: higher = stronger binding
# Residues (chain): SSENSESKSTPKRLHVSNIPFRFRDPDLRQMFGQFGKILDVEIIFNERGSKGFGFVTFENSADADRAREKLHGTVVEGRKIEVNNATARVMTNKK
Oligonucleotide,RBNS enrichment (R)
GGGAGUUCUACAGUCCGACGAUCAUCUCCGAGUGAGGGAGGCCAGCCCCCACAUUUGUCCUCUGCAGGCUCAUUUUGUUGAGCGUCUGCUUUUAUCUUGACACUGAGCACGAGAGGGCACGGGUGGGUGCUCAUGGAAUUCUCGGGUGCCAA,1
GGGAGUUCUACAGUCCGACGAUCGCAAGAGGAUUAUGGCUAACAAGAAUAAAUACAUGGGAAGAGUGCUCCCCAUUGAUUGAAGAGUCACUGUCUGAAAGAAGCAAAGUUCAGUUUCAGCAACAAACAAACUUUGGAAUUCUCGGGUGCCAA,1.98
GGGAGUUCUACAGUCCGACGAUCGACAAUGAGGGCCGCAUGAAGAUCUGGUGCUGCGCGGAUGCUGCCCUGGUGAUGCUGUGUGCUGGGGCAUCCACCAGUGACUCAUUUAAAGGGGCUUGGUCAGGGUUGCUUGGAAUUCUCGGGUGCCAA,5.72
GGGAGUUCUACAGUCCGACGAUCUUGCUAAAGACGAGAGAGAAACCACGUGAAACCUACAUUGCUAUGUUCAUAAUUGCCAAAGCAGUAUUUAUACUAUUGUAAACAACUCGCACAUCUCUCCUGUCUGUUAGUGGAAUUCUCGGGUGCCAA,0.357
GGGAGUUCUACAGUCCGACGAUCCUAUUUAAAGACGCAAUCCCAGGUUCCUUGCACACCAUGGCAGCCUCUCCUUGCACCUUCUCCUGCCUCUCCACACUCCAGGUUCCCUCAGGCUUGUGUCCCCACUGCUGUGGAAUUCUCGGGUGCCAA,0.706
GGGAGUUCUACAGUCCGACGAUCAUUUACACAUUUGUGUUUUAUCUGAUUCUGUUCAGUUCUCAAGGAACUUUCACAAUGCUUUCCUAGGUAGGACCUGGCAGUUUGGCAGUGCCUUCAGUUUAGCAUUGCUAUGGAAUUCUCGGGUGCCAA,0.283
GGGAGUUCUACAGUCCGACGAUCUAAGAGAGCAUUGGUUUGUUAAAGAGCUUUCAAUGUAUAUUAAAACCUUCAAUACUCAGAAAUGAUGGAUUCCUCCAAGGAGUCCUUUACUAGCCUAAACAUUCUCAAAUUGGAAUUCUCGGGUGCCAA,0.482
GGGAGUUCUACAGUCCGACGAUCGGCUUAUUAAAGGAAUGUUGGUUUACAUUGUCUUCAAAGACAAGUAUAGAAGCUGUAUGUGUAAGGGUGACUUAAAUCAUAUGUCACAUUGUCUAAACUAUUCAGACACUUGGAAUUCUCGGGUGCCAA,0.653
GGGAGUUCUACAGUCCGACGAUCAUUCAGGAAUUGCAGAGAAAUGCAUUUUCACAGAAAUCAAGAUGUUAUUUUUGUAUACUAUAUCACUUAGACAACUGUGUUUCAUUUGCUGUAAUCAGUUUUUAAAAGUCUGGAAUUCUCGGGUGCCAA,0.372
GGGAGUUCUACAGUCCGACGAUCUAUAAUGCCUCCUUCCGGGGCAGAGAGCAGGCACUCCCAGCUGGAGCAGAAUAGCAGUUCAGGGUCGCUUAAGGAGUCACCACAACUUAUGUGUUGGGUGACCACAAAAUUGGAAUUCUCGGGUGCCAA,0.5
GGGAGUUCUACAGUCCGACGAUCAAAGUCGGUUAUUGGUGUCUAUUUUGUGUAUUUUCUUUUGUUAAUAAAGAUGCAAUUGAGAAUAUUUAGCCAUGAGUUGUUUGAAGUACCCCUGUUUGGCAGAGAAAUGGUGGAAUUCUCGGGUGCCAA,0.551
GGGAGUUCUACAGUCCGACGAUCAAUAGAAUAUUUAAGCUGUGACUGUAAGAAAUAAACAAGAGUAAACUGACAGGCCUUCCUUCACGUGGGGUCUCAGUGGUGGCCUACCAUGACAGCUUGGUCAGUGUGCCUGGAAUUCUCGGGUGCCAA,0.376

# For quick reference, copied from above (study 1):
Oligonucleotide,E-score
GTCAGACA,0.0772
TAGAGGAA,-0.138
ATGATCGC,0.223
CCAAAATC,-0.0991
